Measurements collected from several papers.
Lines come from different studies, so protocols differ. Numbers after ± are the reported error.
Tumor necrosis factor receptor superfamily member 9/Nectin-4: Tumor necrosis factor receptor superfamily member 9/Nectin-4 (Homo sapiens, UniProt Q07011+Q96NY8)
H2-D1 17: H-2 class I histocompatibility antigen, D-B alpha chain, 17 (H2-D1, Mus musculus, UniProt P01899)

CCCC[C@@H]1NC(=O)[C@H](Cc2ccc(O)cc2)NC(=O)[C@@H]2CCCN2C(=O)[C@H](CC(=O)O)NC(=O)[C@H](C)NC(=O)[C@H](Cc2ccccc2)NC(=O)[C@@H]2CSCCC(=O)N3CN(CN(C3)C(=O)CCSC[C@@H](C(N)=O)NC1=O)C(=O)CCSCCC(=O)N[C@@H](CC(C)(C)C)C(=O)N1CCC[C@H]1C(=O)N[C@@H](CCC(=O)O)C(=O)N[C@H](CCCCNC(=O)CCc1cn(CCOCCOCCOCCOCCOCCC(=O)N[C@H]3CSCCC(=O)N4CN5CN(C4)C(=O)CCSC[C@H](NC(=O)[C@@H](CC(=O)O)NC(=O)[C@H](Cc4cccc6ccccc46)NC(=O)[C@@H]4CCCN4C3=O)C(=O)N[C@@H](CCSC)C(=O)N[C@@H](CCCCNC(=N)N)C(=O)N[C@@H](CC(=O)O)C(=O)N[C@@H](Cc3c[nH]c4ccccc34)C(=O)N[C@@H](CO)C(=O)N[C@@H]([C@@H](C)O)C(=O)N3CCC[C@H]3C(=O)N3C[C@H](O)C[C@H]3C(=O)N[C@@H](Cc3c[nH]c4ccccc34)C(=O)N[C@H](C(N)=O)CSCCC5=O)nn1)C(=O)N1CCC[C@H]1C(=O)N[C@@H](Cc1ccc(O)cc1)C(=O)N2  EC50 (Tumor necrosis factor receptor superfamily member 9/Nectin-4; reporter gene, agonist; HT-1376 coculture with reporter cells): 2.45 nM
COc1ccc(C[C@@H](C)NC[C@H](O)c2ccc(O)c3[nH]c(=O)ccc23)cc1  EC50 (ADRB1 (Meleagris gallopavo, UniProt P07700, A282L/C116L/F327A/F338M/M90V/R68S/Y227A); CRE-SPAP reporter gene (cAMP), agonist; CHO cells expressing ADRB1 β6-m23): 4.27 nM
COc1cc(Nc2ncc(F)c(Nc3ccc4c(n3)NC(=O)C(C)(C)O4)n2)cc(OC)c1OC  IC50 (Disintegrin and metalloproteinase domain-containing protein 17 (ADAM17, Homo sapiens, UniProt P78536); inhibitor): > 10000 nM
CC[C@H](C)[C@H](NC(=O)CNC(=O)[C@@H](NC(=O)[C@@H](NC(=O)[C@H](C)NC(=O)[C@H](CC(N)=O)NC(=O)[C@H](Cc1c[nH]c2ccccc12)NC(=O)[C@@H](NC(=O)[C@H](CO)NC(=O)[C@@H](N)CO)C(C)C)[C@@H](C)O)[C@@H](C)O)C(=O)O  EC50 (H2-D1 17; H-2D stabilisation, flow cytometry; RMA-S TAP-deficient; overnight): 25000 nM
CCCC(=O)N[C@H]1CCOC1=O  EC50 (Regulatory protein SdiA (sdiA, Escherichia coli, UniProt P07026)): 932 nM
COP(=S)(OC)Oc1nc(Cl)c(Cl)cc1Cl  EC50 (Estrogen receptor (ESR1, Homo sapiens, UniProt P03372); agonist): > 100000 nM
C=C(C)[C@@H]1CCC(C)=C[C@H]1c1c(O)cc(CCCCC)cc1O  EC50 (Transient receptor potential cation channel subfamily V member 2 (Trpv2, Rattus norvegicus, UniProt Q9WUD2); calcium influx, agonist, Fura-2 fluorescence; Pichia pastoris membrane vesicles): ~100000 nM
C[C@H]1CN(c2n[nH]c3nc(N[C@H]4CC[C@H](NS(=O)(=O)CCC(F)(F)F)CC4)ncc23)CCO1  remaining binding (Serine/threonine-protein kinase NLK (NLK, Homo sapiens, UniProt Q9UBE8); Kinobeads competition; HEK293, K562, placenta lysate; 0.032 µM, unit not given; relative to: vehicle): 0.94
CCCC[C@@H]1NC(=O)[C@H](Cc2ccc(O)cc2)NC(=O)[C@@H]2CCCN2C(=O)[C@H](CC(=O)O)NC(=O)[C@H](C)NC(=O)[C@H](Cc2ccccc2)NC(=O)[C@@H]2CSCCC(=O)N3CN(CN(C3)C(=O)CCSC[C@@H](C(=O)N[C@@H](C)C(N)=O)NC1=O)C(=O)CCSC[C@H](NC(C)=O)C(=O)N[C@@H](CC(C)(C)C)C(=O)N1CCC[C@H]1C(=O)N[C@@H](CCC(=O)O)C(=O)N[C@H](CCCCNC(=O)CCc1cn(CCOCCOCCOCCOCCOCCC(=O)NCCCC[C@H]3NC(=O)[C@H](Cc4cccc5ccccc45)NC(=O)[C@@H]4CCCN4C(=O)CCSCCC(=O)N4CN5CN(C4)C(=O)CCSC[C@H](NC3=O)C(=O)N[C@@H](CCSC)C(=O)N[C@@H](CCCCNC(=N)N)C(=O)N[C@@H](CC(=O)O)C(=O)N[C@@H](Cc3c[nH]c4ccccc34)C(=O)N[C@@H](CO)C(=O)N[C@@H]([C@@H](C)O)C(=O)N3CCC[C@H]3C(=O)N3C[C@H](O)C[C@H]3C(=O)N[C@@H](Cc3c[nH]c4ccccc34)C(=O)N[C@H](C(N)=O)CSCCC5=O)nn1)C(=O)N1CCC[C@H]1C(=O)N[C@@H](Cc1ccc(O)cc1)C(=O)N2  EC50 (Tumor necrosis factor receptor superfamily member 9/Nectin-4; reporter gene, agonist; HT-1376 coculture with reporter cells): 2.15 nM
CC[C@H](C)[C@H](NC(=O)[C@H](Cc1ccccc1)NC(=O)[C@H](CCC(=O)O)NC(=O)[C@H](CCCNC(=N)N)NC(=O)[C@H](C)NC(=O)[C@H](C)NC(=O)[C@H](CCC(N)=O)NC(=O)[C@H](CCC(=O)O)NC(=O)[C@H](CCC(=O)O)NC(=O)[C@H](CC(C)C)NC(=O)[C@H](Cc1ccc(O)cc1)NC(=O)[C@H](CO)NC(=O)[C@H](CO)NC(=O)[C@@H](NC(=O)[C@H](CC(=O)O)NC(=O)[C@H](CO)NC(=O)[C@@H](NC(=O)[C@H](Cc1ccccc1)NC(=O)[C@@H](NC(=O)CNC(=O)[C@H](CCC(=O)O)NC(=O)[C@H](C)NC(=O)CCc1c[nH]cn1)[C@@H](C)O)[C@@H](C)O)C(C)C)C(=O)N[C@@H](C)C(=O)N[C@@H](Cc1c[nH]c2ccccc12)C(=O)N[C@@H](CC(C)C)C(=O)N[C@H](C(=O)N[C@@H](CCCNC(=N)N)C(=O)NCC(=O)N[C@@H](CCCNC(=N)N)C(=O)N[C@@H](CCCCNC(=O)COCCOCCNC(=O)COCCOCCNC(=O)CC[C@H](NC(=O)CCCCCCCCCCCCCCCCC(=O)O)C(=O)O)C(=O)NCC(=O)NCC(=O)N[C@@H](CO)C(=O)N[C@@H](CCCCNc1c(NCCCCCN(O)C(=O)CCC(=O)NCCCCCN(O)C(=O)CCC(=O)NCCCCCN(O)C(C)=O)c(=O)c1=O)C(=O)O)C(C)C [zirconium-89 labelled]  tissue uptake (ex vivo gamma counting; rat, knee; subcutaneous, 3 nmol/kg, 4 h, added: [89Zr]-labelled peptide): 0.12 %ID/g
CC/C(=C(\c1ccc(O)cc1)c1ccc(OCCN(C)C)cc1)c1ccccc1  EC50 (Cannabinoid receptor 2 (CNR2, Homo sapiens, UniProt P34972); cAMP level increase; CHO cells): 5800 ± 300 nM
CC[C@H](C)[C@H](NC(=O)[C@H](C)NC(=O)[C@@H](NC(=O)[C@@H](NC(=O)[C@H](C)NC(=O)[C@H](CC(N)=O)NC(=O)[C@H](Cc1c[nH]c2ccccc12)NC(=O)[C@@H](NC(=O)[C@H](CO)NC(=O)[C@@H](N)CO)C(C)C)[C@@H](C)O)[C@@H](C)O)C(=O)O  EC50 (H2-D1 17; H-2D stabilisation, flow cytometry; RMA-S TAP-deficient; overnight): 2000 nM
CC[C@H](C)[C@@H]1NC(=O)[C@@H]2CCCN2C(=O)[C@H](CC(C)C)NC(=O)[C@H](CC(C)C)NC(=O)CNC(=O)[C@@H](NC(=O)[C@@H](NC(=O)[C@H](CC(=O)O)NC(=O)CNC(=O)[C@@H](NC(=O)[C@H](C)NC(=O)CNC(=O)[C@H](CCCCN)NC(=O)[C@H](CC(C)C)NC(=O)[C@H](CC(C)C)NC(=O)[C@H](CCCCN)NC(=O)CNC(=O)[C@@H](NC(=O)[C@@H](N)CC(C)C)C(C)C)C(C)C)C(C)C)CSSC[C@@H](C(=O)O)NC1=O  log2 fold change (RNA-seq, item: Ly6d; mouse, traumatic brain injury model, frontal cortex and hippocampus; dose not given; relative to: TBI alone): -2.85
